# Experimental data pooled from the literature.
# Parts stem from different laboratories: compare values within a part only. “And” joins repeats or separate records; there may be more than shown.

# Study 1
# Target: Interferon regulatory factor 7, full length, phosphomimetic (IRF7, Homo sapiens, UniProt Q92985, residues 1-503, S471D/S472D/S475D/S476D/S477D/S483D/S484D/S487D)
# Chain of UniProt Q92985 (whole entry, unmodified, looked up): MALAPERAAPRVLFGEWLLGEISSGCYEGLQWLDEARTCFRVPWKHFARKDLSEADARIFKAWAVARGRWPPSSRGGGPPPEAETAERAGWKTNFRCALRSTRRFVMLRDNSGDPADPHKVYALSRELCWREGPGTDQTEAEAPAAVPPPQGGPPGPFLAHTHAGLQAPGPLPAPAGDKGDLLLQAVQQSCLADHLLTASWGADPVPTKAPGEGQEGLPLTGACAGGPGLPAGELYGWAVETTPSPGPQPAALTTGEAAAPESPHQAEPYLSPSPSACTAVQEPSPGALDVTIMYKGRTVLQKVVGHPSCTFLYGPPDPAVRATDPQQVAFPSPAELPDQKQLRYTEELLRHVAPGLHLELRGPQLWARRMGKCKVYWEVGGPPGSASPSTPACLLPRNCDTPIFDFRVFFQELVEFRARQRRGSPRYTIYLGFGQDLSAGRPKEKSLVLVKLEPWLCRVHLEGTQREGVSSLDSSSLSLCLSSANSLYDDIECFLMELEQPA
# Technique: protein-binding microarray
# Molecule type: double-stranded DNA, one strand shown
# Matrix: in vitro
# Concentration: 2200 nM top
# Notes: 60-bp whole probe
# With: salmon DNA 0.4 mg/ml
# Relative to: random background probes
# Reading: higher = stronger binding
Sequence,fitted relative affinity [z-score]
GCCTAGCACGACGGTATCGACTTTCGGGACGTGCTAGTCTTGATTCGCTTGACGCTGCTG,3.13
GCCTAGCACGACGGACTGGAATATCGGGACGTGCTAGTCTTGATTCGCTTGACGCTGCTG,-0.578
GCCTAGCACTTAGGTATCCTACTGATTTAGTGCTAGGTCTTGATTCGCTTGACGCTGCTG,0.374
GCCTAGCACTCACTTCCCCTCTCTTTCACTGTGCTAGTCTTGATTCGCTTGACGCTGCTG,3.15

# Study 2
# Target: Histone acetyltransferase KAT6A, both winged helices, GST fusion (KAT6A, Homo sapiens, UniProt Q92794, residues 1-181)
# Technique: protein binding microarray
# Molecule type: double-stranded DNA, one strand shown
# Matrix: in vitro
# Concentration: not given
# Notes: 8-mer, flanks averaged, mean of 2 arrays, mostly near background
# Relative to: not given
# Reading: higher = stronger binding
# Residues (chain): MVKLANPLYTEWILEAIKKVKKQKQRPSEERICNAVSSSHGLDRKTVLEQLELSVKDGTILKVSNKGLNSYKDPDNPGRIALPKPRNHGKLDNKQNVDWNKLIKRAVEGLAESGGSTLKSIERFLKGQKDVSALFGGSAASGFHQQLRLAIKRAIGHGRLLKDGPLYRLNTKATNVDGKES
Sequence,E-score
CATTACGC,0.179
TAGAACCA,-0.234
TCCGCCGA,0.257
CAGTAGGA,-0.147
GGCCGGAC,0.0679

# Single results of other studies
Substance,tested on,assay,system,conditions,scale,quantity,result
"VBP1 (Homo sapiens, UniProt P61758)","PFDN2 (Homo sapiens, UniProt Q9UHV9)",cross-linking MS,,hits only,,interaction screen,cross-linked
"PhoQ, residues 284 288 289 292 302 303 ASVMEA","PhoP, residues 12 14 15 18 19 LWHCS (Escherichia coli, UniProt P23836)","Sort-seq, item: YFP reporter",E. coli,"PhoQ-PhoP variant library, with: 10 µM Mg2+","relative to: high Mg2+ state, higher = stronger signaling",fold induction,24.8 and 16.2
